Published values from different studies.
A part holds a random share of what one study measured. Substitutions count along the parent as printed.

Series 1
Target: Ras GTPase-activating protein-binding protein 1, full length (G3BP1, Homo sapiens, UniProt Q13283)
Sequence of UniProt Q13283 (whole entry, looked up): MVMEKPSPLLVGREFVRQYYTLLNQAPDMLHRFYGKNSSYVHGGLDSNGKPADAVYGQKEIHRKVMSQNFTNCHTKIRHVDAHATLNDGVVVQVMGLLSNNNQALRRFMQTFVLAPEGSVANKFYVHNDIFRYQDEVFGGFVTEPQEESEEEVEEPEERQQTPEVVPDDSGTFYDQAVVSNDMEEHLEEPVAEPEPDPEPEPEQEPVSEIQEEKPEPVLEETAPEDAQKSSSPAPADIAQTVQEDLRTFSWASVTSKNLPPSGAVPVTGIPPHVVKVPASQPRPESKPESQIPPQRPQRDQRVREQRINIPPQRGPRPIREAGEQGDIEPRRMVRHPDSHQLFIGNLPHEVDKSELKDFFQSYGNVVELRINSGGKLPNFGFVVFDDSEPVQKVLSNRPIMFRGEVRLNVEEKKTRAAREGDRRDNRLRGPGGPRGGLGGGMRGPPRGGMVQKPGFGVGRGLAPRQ
Method: RNA Bind-n-Seq
Form: RNA
Sample: in vitro
Tested at: 200 nM
Setting: whole 134-nt RNA, ends assumed
Together with: 150 mM KCl
Reference: input library
Direction: higher = stronger binding
Constant ends, left off below: GGGAGUUCUACAGUCCGACGAUC … UGGAAUUCUCGGGUGUCAAGG
| Oligonucleotide | log2 enrichment |
| --- | --- |
| UCCUGUGCUACACAUCGUAUGUACCGAAUCGGGAAAAAGGGUUUUUUUGGGAAAAAGGGAAAGUAUUAUGUUACGCCGUUCGGAUCUGCA | -0.628 |
| UCCUUUGUGUUUACAAAAGCACUGACCCUUUACCUUUUCUUUAGCAAGAAGAAUGGAAUGAACAUAAUGCCAAAAUAAUUAAAUAUAUAA | 0.703 |
| UCAAGUCCUGUGCUACACAUCGUAUGUACCGAAUCGGUUUUUUUGGAGGAAAGGAAAGUAUUAUGUUACGCCGUUCGGAUCUGCACUUCC | -0.681 |
| UAUCUUAUCUACACAUGGGGGACUGAAGAGUUCGAGAGAUCCAAGAGGAAGAAUCCAGCUGCCUAUGAAAAUGACAAAUGAGCAACGCAU | -0.272 |
| UUCCUCAAGUCCUGUGCUACACAUCGUAUGUACCGAAUCGGCGGGCGGCGGAAAGUAUUAUGUUACGCCGUUCGGAUCUGCACUUCCAGC | -0.136 |

Series 2
Target: CCND1, cyclin fold, Cln2 fusion (human)
Method: yeast growth competition, sequencing
Sample: yeast
Setting: weak parent motif
Reference: not given
Direction: higher = stronger binding
Parent: SAMHD1 docking peptide (human); ASKSRVQLFKDDP
| Variant | normalised enrichment score |
| --- | --- |
| R5E | 0.789 |
| K10Y | 0.294 |
| S4I | 0.923 |
| S4G | 0.273 |

Series 3
Target: Histone acetyltransferase KAT6A, winged helix 2, GST fusion (KAT6A, Homo sapiens, UniProt Q92794, residues 85-181)
Method: protein binding microarray
Form: double-stranded DNA, one strand shown
Sample: in vitro
Tested at: not given
Setting: 8-mer, flanks averaged, mean of 2 arrays, mostly near background
Reference: not given
Direction: higher = stronger binding
Target sequence (chain): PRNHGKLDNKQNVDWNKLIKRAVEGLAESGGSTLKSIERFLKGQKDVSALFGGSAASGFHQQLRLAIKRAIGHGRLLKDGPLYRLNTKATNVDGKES
| Oligonucleotide | E-score |
| --- | --- |
| CTGCTGAC | 0.0805 |
| CGGAGGAA | 0.0827 |
| ACGGCCTA | 0.0404 |
| AAAGACTC | -0.237 |
| AAATCGTG | 0.124 |

Further values, each from its own experiment
| Substance | target | test | test system | conditions | how to read | endpoint | result |
| --- | --- | --- | --- | --- | --- | --- | --- |
| PhoQ, residues 284 288 289 292 302 303 TLASMF | PhoP, residues 12 14 15 18 19 TPWLV (Escherichia coli, UniProt P23836) | Sort-seq, measured: YFP reporter | E. coli | PhoQ-PhoP variant library, together with: 10 µM Mg2+ | reference: high Mg2+ state, higher = stronger signaling | fold induction | 8.73 |

A few entries again (series 1):
| Oligonucleotide | log2 enrichment |
| --- | --- |
| UCCUGUGCUACACAUCGUAUGUACCGAAUCGGGAAAAAGGGUUUUUUUGGGAAAAAGGGAAAGUAUUAUGUUACGCCGUUCGGAUCUGCA | -0.628 |
